# Measurements pooled from the literature.
# Each numbered part is a random draw from the data of one study; scales do not carry over between parts.

# Set 1 — method: protein-binding microarray; molecule type: double-stranded DNA, one strand shown; matrix: in vitro; tested at: 250 nM; notes: 60-bp whole probe; added: salmon DNA 0.4 mg/ml; baseline: random background probes; reading: higher = stronger binding; shared flanks, not repeated: GCCTAGCAC … GTCTTGATTCGCTTGACGCTGCTG
# Target: Interferon regulatory factor 5, full length, phosphomimetic (IRF5, Homo sapiens, UniProt Q13568-2, residues 1-514, K96S/S451D/S453D/S456D/S462D)
Sequence,log fluorescence [z-score]
TGTTCATTTTCAAAACTGTTGTGCTAG,1.32
ATAGGTTTCCTTCTCCTTTAGTGCTAG,0.864
TTAGGTTTCGGTTTGGGTTAGTGCTAG,10.5
TCCATGACCTACCCTGCGTTGTGCTAG,-0.401
TTAGAACTGGGGTATCTATTAGTGCTA,0.156
GACGGTTTCCTTTTCATGACGTGCTAG,1.31
TGGTATTTTTTTGTAATCGAGTGCTAG,0.735
TCTTTTATGGTATTTTTTTGGTGCTAG,1.24
TCACTCCTCTTTTTTTGACTGTGCTAG,0.701
TTAGATTTTAGTTCCGATTAGTGCTAG,1.97
ATGCTTCTGGTCTTCTGGGCGTGCTAG,0.116
GACGATCTCATTATCGAGACGTGCTAG,1.39
TCAGTAATCGAAATCTTACTGTGCTAG,1.24
GACGGAATCGACTTTCGGGACGTGCTA,5.75
GACGGTACCGGACTGGGGACGTGCTAG,-0.444
TGAGAACTGAGACTGGATTAGTGCTAG,-0.114
TCATTTTTCTAACTAAAACTGTGCTAG,1.13
CACGGTATCGACTTTCGGGACGTGCTA,6.53
TTAGATCTCAGTAGCGATTAGTGCTAG,0.37
GTAGATTTCAGTATCGATTAGTGCTAG,8.04
GAGATCATCCGTTTCTTCTAGTGCTAG,0.236
TTCGAACTGAGTATCGATTAGTGCTAG,7.05
TTCGGTTTCGACACTGGGTTAGTGCTA,7.37
GACGATCTAAGTATCGAGACGTGCTAG,1.8

# Set 2 — method: RNA Bind-n-Seq; molecule type: RNA; matrix: in vitro; tested at: 200 nM; notes: whole 134-nt RNA, ends assumed; added: 150 mM KCl; baseline: input library; reading: higher = stronger binding
# Target: Fragile X messenger ribonucleoprotein 1, C-terminal low-complexity region (Fmr1, Mus musculus, UniProt P35922)
# Shared flanks, not repeated: GGGAGUUCUACAGUCCGACGAUC … UGGAAUUCUCGGGUGUCAAGG
Sequence,log2 enrichment
CCUGUGCUACACAUCGUAUGUACCGAAUCGGGCCCCCCCGGGCCCCCCCGGCCCCCCCGGAAAGUAUUAUGUUACGCCGUUCGGAUCUGC,-0.0418
GCAGGAAGUAAAAACAAAUGGAAAUGCUUCGGAUAGUGGCAGGGGUGGGGGUUGCUAAGGAAAGGGUGGGAUGGGAAAAGGUAAAGAGUU,0.186
CUGUGCUACACAUCGUAUGUACCGAAUCGGGUUUUUUUGGGGUUUUUUUGGUUUUUUUGGGAAAGUAUUAUGUUACGCCGUUCGGAUCUG,-0.775
CUCAAGUCCUGUGCUACACAUCGUAUGUACCGAAUCGGGAAAGGGUGGGUGGGAAAGUAUUAUGUUACGCCGUUCGGAUCUGCACUUCCA,1.26
CCUGUGCUACACAUCGUAUGUACCGAAUCGGCCCCCCCGGCCCCCCCGGGGCCCCCCCGGAAAGUAUUAUGUUACGCCGUUCGGAUCUGC,-0.102
CCUGUGCUACACAUCGUAUGUACCGAAUCGGUUUUUUUGGGUUUUUUUGGUUUUUUUGGGAAAGUAUUAUGUUACGCCGUUCGGAUCUGC,-0.544
CAGAACGAUCGAUACAGAAACCACGCUGCCGCCACCACACCAUCACCAUCGACAGAACAGUCCUUAAUCCAGAAACCUGAAAUGAAGGAA,0.596
CCUGUGCUACACAUCGUAUGUACCGAAUCGGGUUUUUUUGGGUUUUUUUGGUUUUUUUGGAAAGUAUUAUGUUACGCCGUUCGGAUCUGC,-0.249
CAAGUCCUGUGCUACACAUCGUAUGUACCGAAUCGGGAAAAAGGGUGGGUUUGGGAAAGUAUUAUGUUACGCCGUUCGGAUCUGCACUUC,1.03
CCUCAAGUCCUGUGCUACACAUCGUAUGUACCGAAUCGGCCGGGGCCGGCCGGAAAGUAUUAUGUUACGCCGUUCGGAUCUGCACUUCCA,-0.273
UAACUUUAGAGGAGGAUCUGAUGGAUAUGGCAGAGGACGUGGAUUUGGGGAUGGCUAUAAUGGGUAUGGAGGAGGACCUGGAGGUGGCAA,0.363
UGCAGCUCUCCGGCUGGGAUCCUGGUUGACGCCAUGUCCCAGAAGCACCUUCAGAUCAACCAGACAUUUGAGGAGCUGCGACUGGUCACG,-1.82
UCCUGUGCUACACAUCGUAUGUACCGAAUCGGGGAAAGGGGUUUGGGGAAAAAAAGGGGAAAGUAUUAUGUUACGCCGUUCGGAUCUGCA,0.469
CUCAAGUCCUGUGCUACACAUCGUAUGUACCGAAUCGGCCGGGGCCGGCCGGGGAAAGUAUUAUGUUACGCCGUUCGGAUCUGCACUUCC,-0.406

# Set 3 — method: RNA Bind-n-Seq; molecule type: RNA; matrix: in vitro; tested at: 365 nM; baseline: no-protein control; reading: higher = stronger binding
# Target: RNA binding protein fox-1 homolog 2, RRM domain, GST-SBP tag (RBFOX2, Homo sapiens, UniProt O43251-10, residues 100-194)
# Notes: natural RNA segment, single round, ends assumed
# Shared flanks, not repeated: GGGAGUUCUACAGUCCGACGAUC … UGGAAUUCUCGGGUGCCAA
Sequence,RBNS enrichment (R)
AUGACCACUGUGCUUUGCUACCAACUGACUGAACUCCAGCCAGCCAAAUGAAACCAUGUACCCUUGGCAUAAGAGCCUAGGUAAAAUAAUAUGCAGUAGUAUAGUGUGGA,0.383
GUGUUCUGUGUCCGACGCUGAGUGACCCUUUGUGAGAAAGACGUUGCCUUUGCAGUACAUGAAACAUCCCAUUCUUUGUUCUUGAUGGGAUAGGGGUCGUUAUUGUAGCA,5.41
GUGACUAUCUUAAGAAUAUUAUUUCUUUUUUUAAAAAAGAAUAUUAGAGAGAAAGAGAGAGAGAGAGAGUUGGCAUAAGGACAGUCUUAUCUGUGUCAACCCUCUGCCUG,0.506
AUAUAACCACCAAGGAUGUGUUGGCCUUUGGAGUUCCCCUUUAGGUUCCUAGUGAUGUGGAGGUUUAUGGGUGAAAAAUUAGUGGAGAGGGAACUCCUCUCCCCCAUUUU,1.06
ACUUAGGAUAUUUUCAUUUAUGAUGGGUUUAUCAGGAAGUAACCCCAUGGUAAGUUGAGGCAUAUCUGUAUAUAUUUAAACCUAAUUAAUUCUUGAGCUGAAAAUAAAUA,0.493
GGGACCACGUGUGCACGCAUGACCGUGUGGGUGGCGGCGUUUGCUGUGAACCACGCUCAGGCCACACAGAGACACAUACUUGGUUUCUGGGACUGAGACCCAGGCCUGGC,15.7
ACUCCAAGAAAACAGAAGCUAUGUGGCCUCUGAUCCCCAAACUGGCCUGGGUGGGGACAUGCCUUGAGUGUGCUGGAAUGUGGGUGGAGCCUGCUUCUGGGCCACCCCUC,0.385
GGUAGUAGUGAAAAUCAGGUUUGCUGUGUUCUGCUUUGAGGCCUGGAAUCUUUUAUCAUUAAACACCUAGUACGAAGCAUUUGCAGGAACCUACUGUGCAGUAUCAUAGA,0.45
ACCUCUCUAUACUGGAUACUGUAACUAUGAGAAUAAAAUAUAGAAGUGACAGACGUCUACAGCAUUCCAGCUAUGAUCAUGUUGAUUCUGAAAUCAUGUAAAUUAAGAUU,0.449
ACUAUAUUUCUCAAUCGGACCUCAGGCAAGAUGGCCAUCCCUGUGCUGUGGGAGUUUCUAGAGAAGUACCCUUCAGCUGAAGUGGCCCGAGCUGCCGACUGGAGGGACGU,0.513
AAAAACAAAACAAAACAAAAAAAUCCUCCUAGAAACCAGAAGUAGAGAGAUUUCUGCUAAUUCUGGGCUUUGAAGCGUACGUCUUUUGAGGGGGCAUUUUGAUGUGGUCC,0.405
UACCUUGUAUCUUGGUCUGGAUUCUCUCUCUGAGACCCCGGAUUUUACUUUCUCUUUGGAGGGCGCUGGGACAUACAUCUCUCAAUCCAGCUUCCUCCGCAUCCUCCCAU,0.578

# Set 4 — method: protein binding microarray; molecule type: double-stranded DNA, one strand shown; matrix: in vitro; tested at: not given; baseline: not given; reading: higher = stronger binding
# Target: Histone acetyltransferase KAT6A, winged helix 2, GST fusion (KAT6A, Homo sapiens, UniProt Q92794, residues 85-181)
# Notes: 8-mer, flanks averaged, mean of 2 arrays, mostly near background
# Residues (chain): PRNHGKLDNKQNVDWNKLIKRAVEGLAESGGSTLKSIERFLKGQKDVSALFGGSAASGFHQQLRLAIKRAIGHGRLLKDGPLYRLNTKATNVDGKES
Sequence,E-score
AACGTGAT,-0.0874
CCTTACAC,-0.124
CGACCAAC,-0.0338
AACCGCAT,0.156
AAATCGGT,-0.0379
AACTTGTA,-0.163
GATCCATC,-0.0774
TACAACAA,-0.0775
ATGGTGTC,0.0114
AGAGAAGA,0.0672
CCATAGAG,-0.0738
CCGAGAAC,0.136
CGTCTTGA,0.105
GCTCGTCA,0.114
CCATATAC,-0.073
ACAATATA,-0.0264
GCATGAAA,-0.0034
GAGCACAA,0.047
ACGTGCCG,-0.0425
CCTAACCA,0.023
GCGCTACA,0.0304
CCCCGTAA,-0.0353
CCATACGG,-0.0339
GAATGGAA,0.155
CCAAGCAG,-0.0713

# For quick reference, copied from above (set 4):
Sequence,E-score
CCTTACAC,-0.124
CGACCAAC,-0.0338
AACCGCAT,0.156
AAATCGGT,-0.0379
AACTTGTA,-0.163
GATCCATC,-0.0774
TACAACAA,-0.0775
ATGGTGTC,0.0114
